Results pooled from the literature.
Values joined by “and” are separate records of one study, mostly repeats; a detail may differ. ± gives the spread as reported.
Chain of UniProt P16234 (whole entry, unmodified, looked up): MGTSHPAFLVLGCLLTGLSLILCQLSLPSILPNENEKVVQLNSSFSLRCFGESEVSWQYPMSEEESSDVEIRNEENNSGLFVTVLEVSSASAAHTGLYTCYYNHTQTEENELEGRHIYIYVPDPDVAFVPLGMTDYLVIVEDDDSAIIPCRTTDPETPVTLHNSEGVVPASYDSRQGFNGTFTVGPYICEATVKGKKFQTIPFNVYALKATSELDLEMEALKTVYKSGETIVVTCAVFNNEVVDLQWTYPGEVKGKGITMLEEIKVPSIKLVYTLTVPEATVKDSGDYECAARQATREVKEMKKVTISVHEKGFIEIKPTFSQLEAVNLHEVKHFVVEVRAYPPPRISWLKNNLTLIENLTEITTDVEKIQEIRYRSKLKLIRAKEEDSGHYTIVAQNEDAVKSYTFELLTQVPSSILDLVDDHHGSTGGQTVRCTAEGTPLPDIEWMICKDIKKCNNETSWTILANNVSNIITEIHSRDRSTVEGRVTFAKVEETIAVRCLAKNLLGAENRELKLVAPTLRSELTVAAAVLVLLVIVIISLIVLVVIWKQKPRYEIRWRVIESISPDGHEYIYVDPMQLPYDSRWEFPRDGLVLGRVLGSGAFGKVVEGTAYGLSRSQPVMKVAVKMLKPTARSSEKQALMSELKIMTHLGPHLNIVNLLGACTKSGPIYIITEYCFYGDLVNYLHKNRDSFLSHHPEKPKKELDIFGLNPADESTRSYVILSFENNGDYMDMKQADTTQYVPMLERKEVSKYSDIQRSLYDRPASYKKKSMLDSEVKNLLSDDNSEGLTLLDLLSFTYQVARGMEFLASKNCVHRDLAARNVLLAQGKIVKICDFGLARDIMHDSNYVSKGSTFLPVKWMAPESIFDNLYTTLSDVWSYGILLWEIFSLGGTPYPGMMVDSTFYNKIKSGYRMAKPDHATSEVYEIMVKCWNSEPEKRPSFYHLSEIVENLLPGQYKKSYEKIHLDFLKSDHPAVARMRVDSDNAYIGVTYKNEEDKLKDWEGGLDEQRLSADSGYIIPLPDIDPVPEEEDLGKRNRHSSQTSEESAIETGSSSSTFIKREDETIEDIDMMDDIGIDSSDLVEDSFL

C=C1C[C@]2(C(=O)OC)C=C(C(=O)Nc3cccc(C(=O)Nc4ccc(Nc5nccc(-c6cccnc6)n5)c(C)c4)c3)C(=O)[C@H]1C2
reporter activity (AP1 reporter HEK293; AP1 reporter gene, inhibitor; 10 µM, 6 h, compound washed out, unit not given, with: PMA; relative to: PMA alone): 0.153

COc1ccc(NC(=O)c2ccc3[nH]c(-c4ccc(N(C)C)cc4)nc3c2)cn1
dead cell to confluence ratio (HCT116; IncuCyte; concentration not given, 24 h): 466 and 131 and 236

Cc1ncsc1-c1ccc(CNC(=O)[C@@H]2C[C@@H](O)CN2C(=O)[C@@H](NC(=O)CN2CCN(C3CN(CCNC(=O)C[C@@H]4N=C(c5ccc(Cl)cc5)c5c(sc(C)c5C)-n5c(C)nnc54)C3)CC2)C(C)(C)C)cc1
log2 fold change (Sf9; global proteomics, refers to: XP_035429406.2 XP_035429407.2 XP_035429409.2; 10 µM; relative to: DMSO): -1.75

Cc1cc(C)nc(SCC(=O)Nc2ncc(Cc3cccc(OCc4cn(-c5ccc(Cl)cc5)nn4)c3)s2)n1
inhibition (PC-3M-luc; cell viability, MTS; 10 µM): 29.2 ± 3.4%

CC(C)(C)c1cc(-c2ccc3cc4ccccc4nc3n2)nc(-c2ccc3cc4ccccc4nc3n2)c1.[Cl-].[Cl-].[Ru+2].c1ccc2cc3nc4c5cccnc5c5ncccc5c4nc3cc2c1
EC50 (A-375; photocytotoxicity, resazurin; visible light 400-700 nm, 20 mW, 100 J/cm2): 1.97 µM

CCCCCCCCCCCC(=O)N[C@H](CO)C[C@@H](O)c1ccccc1
LacCer 16 level (HeLa; HPLC-MS/MS; 1 µM, 24 h): 23400 pmol/sample and 20800 pmol/sample and 21600 pmol/sample

Cn1ncc2cc(-c3cncc(Cl)c3N3CCC4(CCNC4=O)CC3)ccc21
log2 fold change (LS174T; gene expression, microarray, refers to: GZMB mRNA; concentration not given, 24 h; relative to: untreated cells): -2.49

COc1ccccc1-c1ccncc1C(=O)Nc1nnc(OCc2ccc(Cl)cc2)s1
γH2AX foci-positive nuclei (DLD-1 BRCA2 wild-type; immunofluorescence; 5 µM, 96 h): 22.8%

C=CC(=O)N1CCCC(n2c(=O)c3ncccc3n(Cc3ccc(Oc4ccccc4)cc3)c2=O)C1 (stereo not shown)
log2 fold change (Rec1; refers to: MET; concentration not given; relative to: untreated): 1.01

CN1CCCNC(=O)c2cccc(c2)C(=O)NCCCN(C)CCCNc2cccc3c2C(=O)c2cccc(c2C3=O)NCCC1
log2 fold change (SAS; RNA-Seq, refers to: ZNF12 mRNA; 1 µM, 6 h; relative to: untreated cells): -1.31

O=C(CNC(=O)c1ccc(Cl)c(C(F)(F)F)c1)Nc1ccc2[nH]nc(/C=C/c3ccccn3)c2c1
GI50 (Ba/F3 TEL-VEGFR1; cell growth, CCK-8): 1.1 µM

COC1CN([C@H]2CC[C@H]([C@@]3(C)Oc4c(Cl)cc(C(=O)NCc5c(SC)cc(C)[nH]c5=O)c(C)c4O3)CC2)C1
log2 fold change (RNA-seq, refers to: PCP4L1 mouse homolog; mouse, HT-1376 xenograft, whole blood; dose not given; relative to: vehicle): 0.456

CC(C)c1ccc(N(C)c2ccc3c(c2)OCC[C@H]3CNc2cnccc2C(=O)O)cc1
IC50 (DLD-1; cell viability, CellTiter-Glo; 7 days): 0.00253 µM

CCN(C(=O)c1cc(F)ccc1Oc1nncnc1N1CCC2(C1)CN([C@H](CCCN(C)CCOC)C(C)C)C2)C(C)C
GI50 (COLO 205; cell growth or viability; 72 h): > 10 µM

COc1cccc(OC)c1-c1cc(C(=O)NC2(C(=O)O)C3CC4CC(C3)CC2C4)nn1-c1ccc(C(=O)N(C)CCCN(C)C(=O)[C@H](CCCCNC(=O)[C@H](CC(C)C)NC(=O)C2OC2C(=O)O)NC(=O)CN2CCN(CC(=O)[O-])CCN(CC(=O)[O-])CCN(CC(=O)[O-])CC2)cc1C(C)C.[177Lu+3] (mixture of isomers)
adduct formation (HT-29; SDS-PAGE autoradiography; concentration not given, 4 h; relative to: radioactive signal): 50.3%

Cc1ccc(-n2cc(CSc3nc4ccccc4n3Cc3cn(-c4ccc(C)cc4)nn3)nn2)cc1
viability (Caco-2; MTT; 31.3 ppm): 22.5%

C[C@@H]1Cc2c([nH]c3ccccc23)[C@@H](c2c(F)cc(/C=C/C(=O)O)cc2F)N1C12CC(C1)C2
log2 fold change (MCF7; RNA-seq, refers to: RBM24 mRNA; 1 µM, 24 h, E2-induced gene; relative to: DMSO vehicle): -1.84

Cc1ncsc1-c1ccc(C(C)NC(=O)C2CC(O)CN2C(=O)C(NC(=O)CCCCCCCCCCN2CCCC(Nc3ncc(Cl)c(Nc4ccccc4S(=O)(=O)C(C)C)n3)C2)C(C)(C)C)cc1 (stereo not shown)
log2 fold change (22Rv1; RNA-seq, refers to: TMEM140 mRNA; concentration not given; relative to: DMSO): -1.55

CO[C@@H]1[C@@H](OC(N)=O)[C@@H](O)[C@H](Oc2ccc3c(O)c(NC(=O)c4ccc(O)c(CC=C(C)C)c4)c(=O)oc3c2C)OC1(C)C
colony count (DLD-1 BRCA2-/-; 100 µM, replicate 1): 0.1

C[n+]1ccc(/C=N/NC(=O)c2cncc(C(=O)N/N=C/c3cc[n+](C)cc3)n2)cc1
ΔTm (MYC parallel G4 DNA; FRET melting; 1 µM, DNA 0.2 µM, with: duplex DNA competitor 10 µM): 0.3 ± 0.4 °C

CN(C)c1ccc(-n2cc(COC(=O)[C@]3(C)C=C(C(=O)OC(C)(C)C)C(=O)CC3)nn2)cc1
luminescence (AP-1 reporter HEK293; AP-1 reporter gene, luciferase reporter; 10 µM, 6 h, with: PMA 6 ng/mL; higher = more transcription): 1070 a.u.

COC(=O)c1cc(NC2=NC(=O)C(=Cc3ccc(N(C)C)cc3)S2)ccc1OC(C)=O
fold change (MCF7; refers to: ZSWIM7 mRNA; 0.81 µM (IC50), 24 h; relative to: DMSO): 0.314

CC(C)(C)c1cc(-c2ccc3cccnc3n2)nc(-c2ccc3cccnc3n2)c1.[Cl-].[Cl-].[Ru+2].c1cnc2c(c1)ccc1cccnc12
phototoxicity index (A-375; resazurin; with: light 733 nm, 100 J/cm2; relative to: dark EC50 over light EC50): 1

O=C1CC[C@H](N2Cc3cc(-c4ccn5ncc(Cl)c5n4)ccc3C2=O)C(=O)N1
log2 fold change (MOLM-13; mRNA level, RNA-seq, refers to: SLC7A5; 200 nM, 24 h; relative to: DMSO): -3.23

O=C(NCc1cc(F)cc(F)c1)[C@@]1(O)CCN(c2ccc3[nH]ccc3c2)C1=O
efficacy (RXF 393; colony formation, soft agar clonogenic; kidney tumour): 71%

CC(C)C[C@@H]1NC(=O)[C@H](CC(C)C)NC(=O)[C@H](Cc2c[nH]c3ccccc23)NC(=O)[C@H](CO)NC(=O)[C@H](Cc2c[nH]c3ccccc23)NC(=O)[C@@H]2CCCN2C(=O)[C@H](CC(C)C)NC(=O)[C@H](Cc2c[nH]cn2)NC(=O)[C@@H]2CCCN2C(=O)[C@H](CC(N)=O)NC(=O)[C@H](C)NC(=O)[C@H](Cc2ccc(O)cc2)NC(=O)[C@H](CS)NC(=O)[C@H](CCCCNC(=O)CN2CCN(CC(=O)O)CCN(CC(=O)O)CCN(CC(=O)O)CC2)NC1=O [lutetium-177 labelled]
live cells (4T1; flow cytometry; 0.4 Bq/cell, 48 h): 68%

C=C1CC2(C(=O)OC)C=C(C(=O)OC(C)(C)C)C(=O)C1C2 (stereo not shown)
luminescence relative to PMA (AP-1 reporter HEK293; AP-1 reporter gene, luciferase reporter; 10 µM, 6 h, with: PMA 6 ng/mL; relative to: PMA alone): 0.334

Cc1nn(-c2cccc(N)c2)c(=O)c2cnc(Nc3ccc(N4CCNCC4)cc3)nc12
IC50 (Platelet-derived growth factor receptor alpha (PDGFRA, Homo sapiens, UniProt P16234, T674I); enzyme activity, inhibitor): > 10 µM

O=C(Nc1nnc2c1c(-c1ccc(Cl)cc1)nc1sc(=Cc3ccco3)c(=O)n12)c1ccccc1 (mixture of isomers)
cell growth (COLO 205; SRB; 10 µM, NCI60 single-dose screen, colon cancer; relative to: untreated): 116%

Cn1ncc(-c2ccc3c(=O)[nH]nc(CN)c3c2)c1-c1c(F)c(Cl)cc(OC2CC2)c1C#N
IC50 (SK-MES-1; cell viability, inhibitor, CellTiter-Glo; 120 h, baseline-subtracted): 4.04 µM

Cc1cc(Cl)cc(-c2ccnc3cc(CN4C(=O)C5C(C4=O)C5(C)C)sc23)c1C[C@@H]1CNCCO1 (stereo partly shown)
viable cells (annexin V-/PI-) (CHP-212 parental (wild-type USP7); annexin V-PI flow cytometry; 1 µM, 48 h): 61% and 50.6% and 52.6%

COc1cc(N2CCN(C(=O)CCOCCNC(=O)[C@@H]3CCCN3)CC2)ccc1Nc1ncc(Cl)c(Nc2ccccc2P(C)(C)=O)n1
early apoptotic cells (NCI-H3122; annexin V/PI flow cytometry; 500 nM, 24 h): 1.7%

CNS(=O)(=O)Nc1nccc(Cc2c(C)c3ccc(Oc4ncccc4F)cc3oc2=O)c1F
IC50 (EOL1; cell viability; 7 days): 0.00167 µM

C=CC(=O)Nc1cccc(Cn2ncc3cnc(Nc4cnn(CCOC)c4)nc32)c1
percent of control (CDK7 human; binding, KINOMEscan; 100 nM; lower = stronger binding): 55%

Nc1ncc(-c2cc(-c3cnn(CC(F)(F)F)c3)ncc2F)nc1C(=O)NC1CNCC(F)C1 (stereo not shown)
remaining binding (HIPK4; KINOMEscan; 1 µM; relative to: DMSO control): 80%

CC#CC#C/C=C1/O[C@@]2(CCCCO2)[C@@H](O)[C@@H]1OC(C)=O
iNOS protein level (RAW264.7; Western blot; concentration not given, with: LPS): decreased

Cn1c(=O)n(C2CCC(=O)NC2=O)c2ccc(C3CCN(CC(=O)Nc4cccc(CS(=O)(=O)N5CC[C@H](Nc6cccc(-c7sc(C(=O)O)c(OCC(=O)O)c7Cl)c6)CC5(C)C)c4)CC3)cc21 (stereo partly shown)
pSTAT1 level (B16-F10; HTRF, refers to: phospho-STAT1 Tyr701; 10 µM, with: IFN-γ; relative to: min-max normalised): 84.4% and 86.9% and 88.2% and 91.9% and 65.2% and 80.5%

Cc1ccncc1.[Cl-].[Cl-].[Ru+2].c1cc(-c2ccc3cccnc3n2)nc(-c2ccc3cccnc3n2)c1.c1ccc2cc3nc4c5cccnc5c5ncccc5c4nc3cc2c1
EC50 (A-375; cytotoxicity, resazurin; dark): 46.3 µM

Cc1nc2c(F)cc(-c3nc(Nc4ccc(C(=O)NCCCCCC(=O)NO)cc4)ncc3F)cc2n1C(C)C
inhibition (4T1; cell growth or viability, CCK-8; 0.3 µM, 48 h): 48.6%

CCN(CC)CC(=O)Nc1cccc(-n2cc(-c3ccc4ccc(-c5cn(-c6cccc(NC(=O)CN(CC)CC)c6)nn5)cc4c3)nn2)c1
fold regulation (RCC4; PCR angiogenesis array, refers to: CDH5; 5 x IC50, 2 h, normoxia; relative to: untreated): -1.11

A few entries again:
CC#CC#C/C=C1/O[C@@]2(CCCCO2)[C@@H](O)[C@@H]1OC(C)=O
iNOS protein level (RAW264.7; Western blot; concentration not given, with: LPS): decreased

CCN(C(=O)c1cc(F)ccc1Oc1nncnc1N1CCC2(C1)CN([C@H](CCCN(C)CCOC)C(C)C)C2)C(C)C
GI50 (COLO 205; cell growth or viability; 72 h): > 10 µM

Cn1ncc(-c2ccc3c(=O)[nH]nc(CN)c3c2)c1-c1c(F)c(Cl)cc(OC2CC2)c1C#N
IC50 (SK-MES-1; cell viability, inhibitor, CellTiter-Glo; 120 h, baseline-subtracted): 4.04 µM

Cc1nc2c(F)cc(-c3nc(Nc4ccc(C(=O)NCCCCCC(=O)NO)cc4)ncc3F)cc2n1C(C)C
inhibition (4T1; cell growth or viability, CCK-8; 0.3 µM, 48 h): 48.6%

CNS(=O)(=O)Nc1nccc(Cc2c(C)c3ccc(Oc4ncccc4F)cc3oc2=O)c1F
IC50 (EOL1; cell viability; 7 days): 0.00167 µM

Cc1ncsc1-c1ccc(CNC(=O)[C@@H]2C[C@@H](O)CN2C(=O)[C@@H](NC(=O)CN2CCN(C3CN(CCNC(=O)C[C@@H]4N=C(c5ccc(Cl)cc5)c5c(sc(C)c5C)-n5c(C)nnc54)C3)CC2)C(C)(C)C)cc1
log2 fold change (Sf9; global proteomics, refers to: XP_035429406.2 XP_035429407.2 XP_035429409.2; 10 µM; relative to: DMSO): -1.75
